Measurements gathered from unrelated publications.
Each line is one published result; not all experiments were run side by side. Numbers after ± are the reported error.
SPT15/TOA1/TOA2/SUA7 1-240; 1-286; 1-122; 1-345: SPT15/TOA1/TOA2/SUA7 1-240; 1-286; 1-122; 1-345 (Saccharomyces cerevisiae)
allR full length assumed: allR full length assumed (Escherichia coli, UniProt P0ACN4)
Chain of UniProt P0ACN4 (whole entry, looked up): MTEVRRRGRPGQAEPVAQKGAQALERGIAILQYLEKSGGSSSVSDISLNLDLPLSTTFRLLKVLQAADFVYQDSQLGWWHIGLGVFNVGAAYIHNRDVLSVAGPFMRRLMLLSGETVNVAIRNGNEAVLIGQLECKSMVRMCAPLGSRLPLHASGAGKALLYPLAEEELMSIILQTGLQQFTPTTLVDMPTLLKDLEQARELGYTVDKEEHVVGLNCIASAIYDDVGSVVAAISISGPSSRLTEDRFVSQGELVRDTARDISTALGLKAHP
Fibroin-modulator-binding protein-1: Fibroin-modulator-binding protein-1 99-193 (Bombyx mori, UniProt Q5FBS0)
CGAS: CGAS 161-522 (Homo sapiens, UniProt Q8N884)
Chain of UniProt Q8N884 (whole entry, unmodified, looked up): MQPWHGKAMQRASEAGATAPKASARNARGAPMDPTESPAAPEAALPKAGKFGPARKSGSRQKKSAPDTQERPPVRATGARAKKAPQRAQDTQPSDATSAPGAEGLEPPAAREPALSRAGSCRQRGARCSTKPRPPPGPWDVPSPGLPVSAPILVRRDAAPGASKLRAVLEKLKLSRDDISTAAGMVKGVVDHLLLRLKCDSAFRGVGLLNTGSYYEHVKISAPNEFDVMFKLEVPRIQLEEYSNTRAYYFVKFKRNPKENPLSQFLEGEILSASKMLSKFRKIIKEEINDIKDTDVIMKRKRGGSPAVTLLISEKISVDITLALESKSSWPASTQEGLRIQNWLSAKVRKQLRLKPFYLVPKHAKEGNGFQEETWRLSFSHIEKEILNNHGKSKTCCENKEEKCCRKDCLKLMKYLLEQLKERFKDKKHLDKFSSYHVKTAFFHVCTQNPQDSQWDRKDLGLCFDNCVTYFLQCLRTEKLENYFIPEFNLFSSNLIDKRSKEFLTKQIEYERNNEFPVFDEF
CGAS K394E: CGAS 161-522 K394E (Homo sapiens, UniProt Q8N884)
Chain of UniProt Q01844 (whole entry, looked up): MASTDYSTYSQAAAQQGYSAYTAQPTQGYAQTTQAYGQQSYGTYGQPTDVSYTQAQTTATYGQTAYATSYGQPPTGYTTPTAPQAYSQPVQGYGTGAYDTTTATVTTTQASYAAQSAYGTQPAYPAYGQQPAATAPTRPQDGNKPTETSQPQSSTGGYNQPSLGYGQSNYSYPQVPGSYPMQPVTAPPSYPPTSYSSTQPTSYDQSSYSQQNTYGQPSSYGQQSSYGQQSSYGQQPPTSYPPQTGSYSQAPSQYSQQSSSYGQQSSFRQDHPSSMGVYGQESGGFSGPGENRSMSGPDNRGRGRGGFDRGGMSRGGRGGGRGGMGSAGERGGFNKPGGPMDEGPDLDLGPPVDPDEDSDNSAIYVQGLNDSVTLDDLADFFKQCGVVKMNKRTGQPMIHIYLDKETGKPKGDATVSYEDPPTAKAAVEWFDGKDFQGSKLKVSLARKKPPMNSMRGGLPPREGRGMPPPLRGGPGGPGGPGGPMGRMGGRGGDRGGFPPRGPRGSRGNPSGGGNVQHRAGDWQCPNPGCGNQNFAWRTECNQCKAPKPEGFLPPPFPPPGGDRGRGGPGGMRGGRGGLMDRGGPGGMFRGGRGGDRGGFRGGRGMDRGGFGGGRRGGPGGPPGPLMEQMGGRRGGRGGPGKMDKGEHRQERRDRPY
Chain of UniProt P04150 (whole entry, looked up): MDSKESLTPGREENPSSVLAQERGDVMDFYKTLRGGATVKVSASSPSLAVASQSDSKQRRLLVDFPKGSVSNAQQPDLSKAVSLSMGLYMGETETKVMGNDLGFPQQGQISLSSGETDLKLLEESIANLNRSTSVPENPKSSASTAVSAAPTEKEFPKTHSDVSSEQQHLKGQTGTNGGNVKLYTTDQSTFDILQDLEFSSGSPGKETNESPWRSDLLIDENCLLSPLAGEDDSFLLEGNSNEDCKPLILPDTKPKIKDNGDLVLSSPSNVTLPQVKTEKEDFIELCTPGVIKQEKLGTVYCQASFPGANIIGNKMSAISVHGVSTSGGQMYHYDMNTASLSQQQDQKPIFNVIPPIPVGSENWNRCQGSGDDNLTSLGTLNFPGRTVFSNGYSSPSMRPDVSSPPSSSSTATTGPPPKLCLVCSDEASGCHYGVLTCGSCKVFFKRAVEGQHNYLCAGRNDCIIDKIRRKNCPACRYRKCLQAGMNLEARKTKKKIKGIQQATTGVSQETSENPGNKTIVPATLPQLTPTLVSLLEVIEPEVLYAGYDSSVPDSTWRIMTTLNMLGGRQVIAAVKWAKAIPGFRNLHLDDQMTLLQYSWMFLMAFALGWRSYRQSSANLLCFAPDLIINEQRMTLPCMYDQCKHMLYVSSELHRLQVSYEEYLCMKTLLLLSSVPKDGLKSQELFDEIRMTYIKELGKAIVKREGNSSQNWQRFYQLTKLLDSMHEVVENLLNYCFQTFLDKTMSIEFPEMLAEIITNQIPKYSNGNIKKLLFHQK
Chain of UniProt P46063 (whole entry, unmodified, looked up): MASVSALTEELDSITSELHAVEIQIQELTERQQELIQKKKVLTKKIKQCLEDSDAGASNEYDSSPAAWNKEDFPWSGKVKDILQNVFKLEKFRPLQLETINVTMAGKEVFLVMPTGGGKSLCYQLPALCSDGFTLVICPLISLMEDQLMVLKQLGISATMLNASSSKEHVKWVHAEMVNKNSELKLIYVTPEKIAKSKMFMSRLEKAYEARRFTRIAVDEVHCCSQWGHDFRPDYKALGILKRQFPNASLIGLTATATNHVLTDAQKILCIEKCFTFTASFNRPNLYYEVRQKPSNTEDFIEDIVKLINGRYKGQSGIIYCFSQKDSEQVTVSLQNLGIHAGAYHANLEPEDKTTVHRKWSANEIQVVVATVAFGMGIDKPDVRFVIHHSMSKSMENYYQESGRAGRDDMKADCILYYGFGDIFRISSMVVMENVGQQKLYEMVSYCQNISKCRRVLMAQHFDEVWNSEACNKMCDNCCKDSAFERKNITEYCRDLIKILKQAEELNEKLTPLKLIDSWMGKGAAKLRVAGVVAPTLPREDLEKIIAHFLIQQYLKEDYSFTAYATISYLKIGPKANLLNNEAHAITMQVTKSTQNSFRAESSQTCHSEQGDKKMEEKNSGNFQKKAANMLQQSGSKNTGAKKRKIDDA
Chain of UniProt P32787 (whole entry, unmodified, looked up): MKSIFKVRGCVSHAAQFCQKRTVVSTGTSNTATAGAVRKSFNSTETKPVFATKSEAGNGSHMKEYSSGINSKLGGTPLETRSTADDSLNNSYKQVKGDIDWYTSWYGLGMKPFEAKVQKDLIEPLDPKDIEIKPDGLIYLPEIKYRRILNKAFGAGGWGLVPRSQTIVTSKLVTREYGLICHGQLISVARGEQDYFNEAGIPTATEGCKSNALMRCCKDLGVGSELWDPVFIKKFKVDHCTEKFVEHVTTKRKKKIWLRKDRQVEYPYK
Chain of UniProt P19880 (whole entry, looked up): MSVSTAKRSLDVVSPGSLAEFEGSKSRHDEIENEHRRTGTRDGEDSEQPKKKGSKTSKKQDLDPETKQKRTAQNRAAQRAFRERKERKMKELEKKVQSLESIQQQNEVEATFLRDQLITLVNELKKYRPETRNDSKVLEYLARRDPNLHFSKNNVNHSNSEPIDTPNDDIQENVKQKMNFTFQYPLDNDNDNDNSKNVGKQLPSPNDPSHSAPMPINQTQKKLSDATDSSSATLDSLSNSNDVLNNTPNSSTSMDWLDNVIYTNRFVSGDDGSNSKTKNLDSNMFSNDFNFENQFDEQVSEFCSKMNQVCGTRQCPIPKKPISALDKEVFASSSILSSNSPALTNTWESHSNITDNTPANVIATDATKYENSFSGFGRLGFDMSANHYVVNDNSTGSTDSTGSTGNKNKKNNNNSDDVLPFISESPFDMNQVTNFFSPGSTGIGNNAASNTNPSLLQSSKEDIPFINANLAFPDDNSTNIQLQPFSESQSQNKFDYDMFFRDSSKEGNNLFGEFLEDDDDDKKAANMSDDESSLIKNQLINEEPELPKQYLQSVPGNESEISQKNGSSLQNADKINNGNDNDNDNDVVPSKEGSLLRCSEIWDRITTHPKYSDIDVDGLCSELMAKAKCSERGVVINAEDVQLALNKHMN
Chain of UniProt P42568 (whole entry, unmodified, looked up): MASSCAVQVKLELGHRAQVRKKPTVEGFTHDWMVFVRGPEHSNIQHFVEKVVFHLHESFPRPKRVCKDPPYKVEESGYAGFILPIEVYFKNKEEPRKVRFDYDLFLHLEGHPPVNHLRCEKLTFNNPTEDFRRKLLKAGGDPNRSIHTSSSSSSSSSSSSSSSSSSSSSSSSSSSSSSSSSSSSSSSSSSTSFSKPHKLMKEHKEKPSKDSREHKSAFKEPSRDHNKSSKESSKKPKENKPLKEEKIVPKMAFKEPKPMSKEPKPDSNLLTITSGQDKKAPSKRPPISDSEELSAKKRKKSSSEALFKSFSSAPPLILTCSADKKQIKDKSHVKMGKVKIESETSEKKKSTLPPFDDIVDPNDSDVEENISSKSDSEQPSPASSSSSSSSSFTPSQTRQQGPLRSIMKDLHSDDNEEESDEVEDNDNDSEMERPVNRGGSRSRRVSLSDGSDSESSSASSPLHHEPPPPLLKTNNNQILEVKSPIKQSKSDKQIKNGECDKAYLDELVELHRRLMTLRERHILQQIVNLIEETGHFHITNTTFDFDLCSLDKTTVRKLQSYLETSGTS
Chain of UniProt P01185 (whole entry, looked up): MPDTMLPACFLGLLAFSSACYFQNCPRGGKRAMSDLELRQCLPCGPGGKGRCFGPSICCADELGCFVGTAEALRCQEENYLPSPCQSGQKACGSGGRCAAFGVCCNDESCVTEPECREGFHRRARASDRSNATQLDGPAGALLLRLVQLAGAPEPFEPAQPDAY
Chain of UniProt P18848 (whole entry, unmodified, looked up): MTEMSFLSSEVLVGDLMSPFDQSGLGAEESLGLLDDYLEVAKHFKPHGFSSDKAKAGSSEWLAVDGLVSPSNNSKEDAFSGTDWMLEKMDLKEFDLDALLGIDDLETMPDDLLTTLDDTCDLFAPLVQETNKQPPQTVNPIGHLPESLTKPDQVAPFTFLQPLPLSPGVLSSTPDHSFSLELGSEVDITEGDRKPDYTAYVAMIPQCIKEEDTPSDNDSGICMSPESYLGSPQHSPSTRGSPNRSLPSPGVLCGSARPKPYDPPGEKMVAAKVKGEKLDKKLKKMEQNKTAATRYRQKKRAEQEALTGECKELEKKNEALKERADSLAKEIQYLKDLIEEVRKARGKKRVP

| Strand | target | assay | system | setting | Kd [nM] |
| --- | --- | --- | --- | --- | --- |
| DNA 1 AAATCTTTTCTTTTTTCCATTCATTCATTAAATTTTCAATTCAATCGGTCC / DNA 2 GGACCGATTGACTTGAAAATTTAATGAATGAATGGAAAAAAGAAAAGATTT (dsDNA; 5'-amino-C6 primer) | SPT15/TOA1/TOA2/SUA7 1-240; 1-286; 1-122; 1-345 | array | double-stranded DNA | TBP:TFIIA:TFIIB ternary complex | 1.89 ± 0.16 |
| AGTTGGCAAGTC (dsDNA) | NFIB full length assumed (Homo sapiens, UniProt O00712) | BLI | double-stranded DNA, one strand shown | together with: Zn2+ 1 mM | 2 |
| TCCTGAAGAGGCGCCTATAAAAGGTCCTATCGTCGTCAAGTCAATCGGTCC (dsDNA; 5'-amino-C6 primer) | SPT15/TOA1/TOA2/SUA7 1-240; 1-286; 1-122; 1-345 | array | double-stranded DNA, one strand shown | TBP:TFIIA:TFIIB ternary complex | 3.69 ± 0.83 |
| CAAAATATGTCATCTCTGGCGGAAAAGTTTTCCACTGACAACGCGGGCATTGCCTACTTAA (dsDNA) | allR full length assumed | BLI | double-stranded DNA, one strand shown |  | 53.1 |
| TTGATAAGAGGTCATTTTTGCGGATGGCTTAGAGCTTAATTGCTGAATCTGGTGCTGTAGCTCAACATGTTTTAAATATGCAA (ssDNA) | MGM101 23-269 K133A (Saccharomyces cerevisiae, UniProt P32787) | fluorescence polarization | single-stranded DNA |  | 760 ± 160 |
| CACACACACACA (dsDNA) | Fibroin-modulator-binding protein-1 | ITC | double-stranded DNA, one strand shown |  | 3990 ± 560 |
| TAAGACACGATGCGATAAAATCTGTTTGTAAAATTTATTAAGGGTACAAATTGCCCTAGC (dsDNA) | CGAS | fluorescence anisotropy | double-stranded DNA, one strand shown |  | 51.4 ± 1.1 |
| CACCATCCACTAC / ATGTAGTTGTAGTGGATGGTGGTAC (dsDNA; primer-template) | POLH 1-432 F17S (Homo sapiens, UniProt Q9Y253) | fluorescence polarization |  | together with: MgCl2 5 mM | 26 ± 4 |
| DNA 1 TGGGTGGGTAGGGTGGGTAGGGGAGGAT / DNA 2 ATCCTCCCCTA (DNA; intramolecular parallel G4, 5' overhang, 11-bp duplex) | REV1 330-833 G498E (Homo sapiens, UniProt Q9UBZ9) | FP | folded DNA | KCl 100 mM | 6.5 ± 1.7 |
| CGCTTATAGAATTATATAATTATCCAATTATCGAATTATCTAATTATGCAATTATCTCCGGCGGTATGAC (dsDNA) | YAP1 full length assumed (Saccharomyces cerevisiae, UniProt P19880) | MITOMI | double-stranded DNA, one strand shown | not purified | 1400 ± 100 |
| TGGATGGATGGA (dsDNA) | Fibroin-modulator-binding protein-1 | ITC | double-stranded DNA, one strand shown |  | 1130 ± 59.6 |
| RNA 1 UAAGACACGAUGCGAUAAAAUCUGUUUGUAAAAUUUAUUAAGGGUACAAAUUGCCCUAGC / RNA 2 GCUAGGGCAAUUUGUACCCUUAAUAAAUUUUACAAACAGAUUUUAUCGCAUCGUGUCUUA (dsRNA) | CGAS K394E | fluorescence anisotropy | double-stranded RNA |  | 1490 ± 530 |
| CTCAGGAATTCCTATGAAGTAATGTGGAGCTCAGTTCAAGTCAATCGGTCC (dsDNA; 5'-amino-C6 primer) | SPT15/TOA1/TOA2/SUA7 1-240; 1-286; 1-122; 1-345 | array | double-stranded DNA, one strand shown | TBP:TFIIA:TFIIB ternary complex | 3.12 ± 0.43 |
| CTAACTAACTAA (dsDNA) | Fibroin-modulator-binding protein-1 | ITC | double-stranded DNA, one strand shown |  | 2150 ± 134 |
| UAGAAGCGGAUUUAGCUCAGUUGGGAGAGCGCCAGACUGAAGAUCUGGAGGUCCUGUGUUCGAUCCACAGAAUUCGCA (tRNA (Saccharomyces cerevisiae)) | RNA-free ribonuclease P 1-192 E141Q (Aquifex aeolicus, UniProt O67035) | fluorescence polarization | folded RNA | together with: CaCl2 20 mM | 1510 ± 140 |
| AGAACAGAGTGTTCT (dsDNA) | NR3C1 98-525 (Homo sapiens, UniProt P04150) | fluorescence anisotropy | double-stranded DNA, one strand shown |  | 230 |
| AAGTAAGTAAGT (dsDNA) | Fibroin-modulator-binding protein-1 | ITC | double-stranded DNA, one strand shown |  | 5140 ± 921 |
| CTTACGACGGGCGTAATGGTGCGGGTGGTTGGGGCGCGGTCGTAAG (DNA hairpin; 8-bp stem, 30-nt loop) | F2 alpha-thrombin (Homo sapiens) | BLI | folded DNA |  | 4.4 |
| ATCGATCGATCG (dsDNA) | Fibroin-modulator-binding protein-1 | ITC | double-stranded DNA, one strand shown |  | 2990 ± 362 |
| CTCAGGAATTCCCATAAAGTAATGTGGAGCTCAGTTCAAGTCAATCGGTCC (dsDNA; 5'-amino-C6 primer) | SPT15/TOA1/TOA2/SUA7 1-240; 1-286; 1-122; 1-345 | array | double-stranded DNA, one strand shown | TBP:TFIIA:TFIIB ternary complex | 3.34 ± 0.62 |
| DNA 1 GGATCTCGACGCTCTCCCTT / DNA 2 GTCGAGATCC (dsDNA; 3' 10-nt overhang, blunt end) | RECQL 49-616 (Homo sapiens, UniProt P46063) | fluorescence anisotropy | double-stranded DNA | Mg2+ 5 mM, without ADPNP | 131 ± 14 |
| CGCGGCTTGCGCCATTCTGACCGCGCTCTGCACGGAAAGATTTTTCAAAACGATAATCGAT (dsDNA) | allR full length assumed | BLI | double-stranded DNA, one strand shown |  | 98.9 |
| DNA 1 CACTGGCCGTCTTACGGTCGCTCTGCTCGACG / DNA 2 CGACCGTAAGACGGCCAGTG (dsDNA; 20 bp, 3' 12 nt overhang) | RECQL 63-592 T371A (Homo sapiens, UniProt P46063) | fluorescence anisotropy | double-stranded DNA | together with: Mg2+ 3 mM | 108 ± 35.4 |
| GTGTTCGGACTCTGCCTCAAGACGGTAGTCAACGTGCTTG (ssDNA) | XRS2 1-325 (Saccharomyces cerevisiae, UniProt P33301) | EMSA | single-stranded DNA | Hill fit, apparent | 3700 ± 230 |

| Strand | target | assay | system | setting | Kd [nM] |
| --- | --- | --- | --- | --- | --- |
| TGACGTAGATTCGAATCGTTAGTGAGAGCTTAATTGCTGAATCTGGTG (dsDNA) | MGM101 23-269 (Saccharomyces cerevisiae, UniProt P32787) | fluorescence polarization | double-stranded DNA, one strand shown |  | 2200 ± 1500 |
| GCCTGTTGTGAGCCTCCTAACATTTAGAGCCGTGTCGTACGAACTATGACCCAGTGCCCGCTTATTCTTGTCTCCC (ssDNA; two predicted stem-loops) | Oprm1 fragment (Mus musculus) | fluorescence | MOR-expressing cells | not purified | 28 |
| GCGGGCGGGCGG (dsDNA) | Fibroin-modulator-binding protein-1 | ITC | double-stranded DNA, one strand shown |  | 4790 ± 888 |
| AAAUGAGGCGCUGCAUGUGGCAGUCUGCCUUUCUUU (structured RNA) | MLLT3 1-140 K63E/K67E (Homo sapiens, UniProt P42568) | fluorescence polarization | folded RNA |  | 674 ± 60 |
| CACTCTGACGTCACACTC (dsDNA) | ATF4 276-341 C310A (Homo sapiens, UniProt P18848) | fluorescence polarization | double-stranded DNA, one strand shown | one-site model, dimer, together with: Mg2+ 10 mM | 3080 ± 730 |
| AAAGAAAGAAAGAAAGAAAGAAAG (ssDNA) | CGAS | fluorescence anisotropy | single-stranded DNA |  | 2440 ± 850 |
| CTCTCGGGACGACGTCCAAGTAGTACGTTTAATTAGGATTTCCGAATTATTGGCATGCGTCGTCCC (DNA; stem-loop; internal amino group) | arginine vasopressin 20-28 (Homo sapiens, UniProt P01185) | FET | folded DNA | apparent | 1.4 |
| GCGGGGCCCG (ssRNA) | TARDBP 102-269 (Homo sapiens, UniProt Q13148) | BLI | RNA |  | 1800 ± 400 |
| TTAATATTATTTAATATTTTATAAAATTTTTATTAATTTAATTTTTAATTATTTT (dsDNA) | Transcriptional regulator, TrmB 1-129 (Saccharolobus islandicus, UniProt F0NIS6) | EMSA | double-stranded DNA, one strand shown | together with: Mg2+ 10 mM | 375 ± 47 |
| TTGTGCTACGGTCTCTCCACCCCCTGCTGCTGCTGTCAAGTCAATCGGTCC (dsDNA; 5'-amino-C6 primer) | SPT15/TOA1/TOA2/SUA7 1-240; 1-286; 1-122; 1-345 | array | double-stranded DNA, one strand shown | TBP:TFIIA:TFIIB ternary complex | 1.84 ± 0.67 |
| GCTCAGTTCCCTGCTGGAAACGCCGCGGTCGTAGTAATATAGATAGGTCTGGATCAGATGTTGTTTCGGGGATTGTCAACAGCTGAGC (dsDNA) | EWSR1 1-656 (Homo sapiens, UniProt Q01844) | EMSA | double-stranded DNA, one strand shown |  | 103 ± 5 |
| TAAGACACGATGCGATAAAATCTG (dsDNA) | CGAS K394E | fluorescence anisotropy | double-stranded DNA, one strand shown |  | 397 ± 39 |
| UUCCUAUAUCUUCU (XNA; single strand, 2'-OMe, phosphorothioate backbone) | TARDBP 1-414 (Homo sapiens, UniProt Q13148) | fluorescence polarization | modified nucleic acid | apparent | < 20 |
| TTGACAAAATTTGAAAGTTGGAAAAATTTTCCAATAAATAGAGGTAGGAATAAAATGGCAA (dsDNA) | allR full length assumed | BLI | double-stranded DNA, one strand shown |  | 9.61 |
| GTTGGTTGGTTG (dsDNA) | Fibroin-modulator-binding protein-1 | ITC | double-stranded DNA, one strand shown |  | 7200 |
| AAAGAAAGAAAGAAAGAAAGAAAGAAAGAAAGAAAGAAAGAAAGAAAGAAAGAAAGAAAG (ssDNA) | CGAS | fluorescence anisotropy | single-stranded DNA |  | 549 ± 65 |
| AGGGAGGGAGGG (dsDNA) | Fibroin-modulator-binding protein-1 | ITC | double-stranded DNA, one strand shown |  | 15300 |
| TCCTGAAGGGGAGCCCTAGCTTGGTCCTATCGTCGTCAAGTCAATCGGTCC (dsDNA; 5'-amino-C6 primer) | SPT15/TOA1/TOA2/SUA7 1-240; 1-286; 1-122; 1-345 | array | double-stranded DNA, one strand shown | TBP:TFIIA:TFIIB ternary complex | 3.09 ± 0.77 |
| AGTCCGTGGTAGGGCAGGTTGGGGTGACT (ssDNA) | F2 / (Homo sapiens) | fluorescence anisotropy | single-stranded DNA |  | 33.4 ± 3.7 |
| CTGCTCCGTCCGCCTTCGAGGAGAGGTCGGCATCTTCAAGTCAATCGGTCC (dsDNA; 5'-amino-C6 primer) | SPT15/TOA1/TOA2/SUA7 1-240; 1-286; 1-122; 1-345 | array | double-stranded DNA, one strand shown | TBP:TFIIA:TFIIB ternary complex | 4.26 ± 0.89 |
| GAUAAAGAUCAUGACAUCGACUACAAGGACGACGACGACAAGGUUGUGGAGCUGAUCGAGAAGCACCACCACCACCACCACAAAGUGGUGAUGAACUAA (RNA; predicted 2-5 helices) | FXR1 1-539 (Homo sapiens) | fluorescence anisotropy | folded RNA | together with: tRNA competitor | 157 ± 59 |
| TCTTTTCTTGCTTAAATCTATAACTACAAAAAACATCAAGTCAATCGGTCC (dsDNA; 5'-amino-C6 primer) | SPT15/TOA1/TOA2/SUA7 1-240; 1-286; 1-122; 1-345 | array | double-stranded DNA, one strand shown | TBP:TFIIA:TFIIB ternary complex | 2.96 ± 0.45 |
| ATTTATATTATTTATTCATATTTATATTTA (ssDNA) | APOBEC3F full length assumed W310A (Homo sapiens, UniProt Q8IUX4) | EMSA | single-stranded DNA |  | 3450 ± 1030 |

For quick reference, copied from above:
| Strand | target | assay | system | setting | Kd [nM] |
| --- | --- | --- | --- | --- | --- |
| TTGATAAGAGGTCATTTTTGCGGATGGCTTAGAGCTTAATTGCTGAATCTGGTGCTGTAGCTCAACATGTTTTAAATATGCAA (ssDNA) | MGM101 23-269 K133A (Saccharomyces cerevisiae, UniProt P32787) | fluorescence polarization | single-stranded DNA |  | 760 ± 160 |
| TTGTGCTACGGTCTCTCCACCCCCTGCTGCTGCTGTCAAGTCAATCGGTCC (dsDNA; 5'-amino-C6 primer) | SPT15/TOA1/TOA2/SUA7 1-240; 1-286; 1-122; 1-345 | array | double-stranded DNA, one strand shown | TBP:TFIIA:TFIIB ternary complex | 1.84 ± 0.67 |
| CTCAGGAATTCCTATGAAGTAATGTGGAGCTCAGTTCAAGTCAATCGGTCC (dsDNA; 5'-amino-C6 primer) | SPT15/TOA1/TOA2/SUA7 1-240; 1-286; 1-122; 1-345 | array | double-stranded DNA, one strand shown | TBP:TFIIA:TFIIB ternary complex | 3.12 ± 0.43 |
